# Assay results from different studies.
# ± gives the spread as reported.
# UniProt P11388, sequence (whole entry, looked up): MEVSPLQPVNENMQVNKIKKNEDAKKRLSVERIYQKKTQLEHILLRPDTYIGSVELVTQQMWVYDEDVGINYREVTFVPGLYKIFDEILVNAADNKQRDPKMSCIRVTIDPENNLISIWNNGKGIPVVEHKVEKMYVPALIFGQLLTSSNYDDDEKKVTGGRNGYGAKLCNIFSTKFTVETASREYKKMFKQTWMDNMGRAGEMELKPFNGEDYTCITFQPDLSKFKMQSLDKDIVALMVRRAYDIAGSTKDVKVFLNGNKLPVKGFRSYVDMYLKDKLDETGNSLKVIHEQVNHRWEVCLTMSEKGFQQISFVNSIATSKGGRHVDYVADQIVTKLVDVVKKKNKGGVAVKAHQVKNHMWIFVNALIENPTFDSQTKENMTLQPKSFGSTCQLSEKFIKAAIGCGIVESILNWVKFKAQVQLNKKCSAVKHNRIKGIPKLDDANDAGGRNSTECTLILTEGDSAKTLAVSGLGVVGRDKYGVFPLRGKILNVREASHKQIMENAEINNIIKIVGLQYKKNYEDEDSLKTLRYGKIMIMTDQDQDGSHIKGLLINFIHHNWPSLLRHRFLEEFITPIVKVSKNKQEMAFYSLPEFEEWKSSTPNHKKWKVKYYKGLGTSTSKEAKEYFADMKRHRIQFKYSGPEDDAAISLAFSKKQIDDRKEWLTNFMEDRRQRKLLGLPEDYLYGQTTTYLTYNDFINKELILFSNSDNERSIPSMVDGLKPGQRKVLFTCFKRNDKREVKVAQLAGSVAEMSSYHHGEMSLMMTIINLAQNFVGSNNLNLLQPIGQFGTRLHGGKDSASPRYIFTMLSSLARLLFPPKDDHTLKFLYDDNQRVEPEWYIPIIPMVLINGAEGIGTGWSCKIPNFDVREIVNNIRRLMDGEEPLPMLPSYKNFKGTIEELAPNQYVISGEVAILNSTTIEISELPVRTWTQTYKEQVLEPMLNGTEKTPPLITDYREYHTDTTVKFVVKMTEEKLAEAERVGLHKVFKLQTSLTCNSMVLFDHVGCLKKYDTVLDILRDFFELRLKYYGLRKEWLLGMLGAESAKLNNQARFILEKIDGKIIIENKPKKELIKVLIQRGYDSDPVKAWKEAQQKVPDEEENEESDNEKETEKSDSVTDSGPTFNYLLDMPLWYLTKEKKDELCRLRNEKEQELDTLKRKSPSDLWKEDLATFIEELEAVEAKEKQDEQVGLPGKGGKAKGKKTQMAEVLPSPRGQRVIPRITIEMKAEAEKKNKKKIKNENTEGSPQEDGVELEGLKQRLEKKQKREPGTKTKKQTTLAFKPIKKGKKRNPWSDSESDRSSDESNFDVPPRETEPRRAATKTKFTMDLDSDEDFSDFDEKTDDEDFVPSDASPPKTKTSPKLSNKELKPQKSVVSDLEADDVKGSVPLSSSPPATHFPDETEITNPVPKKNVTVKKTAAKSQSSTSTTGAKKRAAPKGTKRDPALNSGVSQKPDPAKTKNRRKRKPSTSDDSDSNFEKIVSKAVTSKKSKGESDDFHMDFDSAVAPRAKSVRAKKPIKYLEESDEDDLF
Structure (SMILES),tested on,test,test system,conditions,how to read,measurement,result
Fc1ccccc1Cc1nc(-c2nc(C(F)(F)F)n[nH]2)cn2ccnc12,,,"healthy human subjects, both sexes","oral, 10 mg, fasted",,subjects with postural dizziness,7.1%
CC(=O)/C=C/C(=O)NNC(=O)CCc1ccccc1C(=O)N[C@H](C)c1cccc2ccccc12,SARS-CoV-2,viral replication,HeLa-ACE2,extrapolated above 10 µM,,EC90,> 10 µM
C[C@H](NC(=O)[C@@H](c1cccnc1)N(C(=O)C(Br)(Br)Br)c1ccc(-c2ccccc2)cc1)c1ccccc1,SARS-CoV-2,viral replication,Caco-2 hACE2,,,EC50,2.15 µM
CCCN(CCC)C(=O)c1cccc(C(=O)N[C@H](C)c2cccc3ccccc23)c1,SARS-CoV-2,viral replication,Vero E6,,,EC50,15 µM
COc1cc([C@@H]2c3cc4c(cc3[C@@H](O[C@@H]3O[C@@H]5CO[C@@H](C)O[C@H]5[C@H](O)[C@H]3O)[C@H]3COC(=O)[C@H]23)OCO4)cc(OC)c1O,"DNA topoisomerase 2-alpha (TOP2A, Homo sapiens, UniProt P11388)",DNA cleavage,,"200 µM, replicate 2",,linear DNA,35.8%
Cc1c(S(=O)(=O)N2CCn3cccc3C2)cc(C(=O)NCc2cccnc2N2CCCC2)n1C,SARS-CoV-2,viral replication,"Huh7.5 cells, WA1/2020",,,EC50,0.6 µM
C[C@@H](NC(=O)c1ccccc1CCC(=O)NNC(=O)/C=C/C#N)c1cccc2ccccc12,SARS-CoV-2,viral replication,HeLa-ACE2,extrapolated above 10 µM,,EC90,> 10 µM
CC(C)C[C@H](NC(=O)OCc1ccccc1)C(=O)N[C@H](C=O)C[C@@H]1CCCNC1=O,SARS-CoV-2,"viral replication, RT-qPCR viral load",Vero,48 h,,EC50,2.1 ± 0.5 µM
CO/N=C(\C(=O)N[C@@H]1C(=O)N2C(C(=O)O)=C(COC(C)=O)CS[C@H]12)c1csc(N)n1,Pseudomonas aeruginosa,,clinical isolate RKI-No_613/16,,,MIC,> 16 µg/mL
COC(=O)Nc1c(N)nc(-c2nn(Cc3ccccc3F)c3ncc(F)cc23)nc1N,,,"humans, plasma","10 mg once daily, phase I DDI study, without warfarin",,Cmax at steady state,348 ng/mL
Cc1c(S(=O)(=O)N2CCn3nccc3C2)cc(C(=O)NCc2c(F)ccc3cnn(C)c23)n1C,SARS-CoV-2,viral replication,"Huh7.5 cells, WA1/2020",,,EC50,0.17 µM
C[C@@H](CCc1ccccc1)NC(=O)[C@@H](c1cccnc1)N(C(=O)C(Cl)Cl)c1ccc(-c2ccccc2)cc1,SARS-CoV-2,viral replication,Caco-2 hACE2,,,EC50,1.43 µM
N#CCC1CCN(c2nc(Nc3ccc(N4CCC(O)CC4)cc3)c3c(=O)[nH]ncc3n2)CC1,,"Olink multiplex, refers to: CD163","human, serum","40 mg, day 29, unit not given",reference: placebo,serum level change,-1.42
CNCc1ccc(C)c(C(=O)N[C@H](C)c2cccc3ccccc23)c1,SARS-CoV-2,viral replication,Vero E6,,,EC50,20 µM
Cc1c(S(=O)(=O)N2CCn3nccc3C2)cc(C(=O)NCc2c(F)ccnc2N2CCCC2)n1C,SARS-CoV-2,viral replication,"Huh7.5 cells, WA1/2020",,,EC50,0.27 µM

# Some of these lines once more:
Structure (SMILES),tested on,test,test system,conditions,how to read,measurement,result
CCCN(CCC)C(=O)c1cccc(C(=O)N[C@H](C)c2cccc3ccccc23)c1,SARS-CoV-2,viral replication,Vero E6,,,EC50,15 µM
COc1cc([C@@H]2c3cc4c(cc3[C@@H](O[C@@H]3O[C@@H]5CO[C@@H](C)O[C@H]5[C@H](O)[C@H]3O)[C@H]3COC(=O)[C@H]23)OCO4)cc(OC)c1O,"DNA topoisomerase 2-alpha (TOP2A, Homo sapiens, UniProt P11388)",DNA cleavage,,"200 µM, replicate 2",,linear DNA,35.8%
